Results gathered from unrelated publications.
Numbered parts are unrelated; each lists some results of a single study. Substitutions count along the parent as printed.

Study 1 — target: CREBZF, bZIP domain (human); technique: DHFR protein complementation; matrix: yeast; reference: wild-type JUN-FOS pair; direction: higher = stronger binding; measurement: binding fitness
Setting: single substitutions, most at no-binding floor
Starting sequence: JUN, bZIP domain (human); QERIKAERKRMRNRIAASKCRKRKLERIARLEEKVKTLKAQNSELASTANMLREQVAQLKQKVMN; partner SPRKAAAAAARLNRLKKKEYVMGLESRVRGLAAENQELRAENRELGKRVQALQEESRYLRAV
K34W: -1.54 natural log
L38Q: -1.5 natural log
R30C: -1.55 natural log
Q41D: -1.48 natural log
R53L: -1.61 natural log
L45P: -1.49 natural log
E33H: -1.52 natural log
V56L: -1.38 natural log
A40V: -1.41 natural log
Q41L: -1.43 natural log
E54N: -1.57 natural log
A29G: -1.39 natural log
E33T: -1.51 natural log
E54R: -1.43 natural log

Study 2 — target: CRIPT, C-terminal peptide; technique: DHFR complementation, deep sequencing; matrix: yeast; reference: wild type; direction: higher = weaker binding; measurement: binding free energy change
Setting: single substitutions, model-inferred values
Starting sequence: ERBIN, PDZ domain 1 (human); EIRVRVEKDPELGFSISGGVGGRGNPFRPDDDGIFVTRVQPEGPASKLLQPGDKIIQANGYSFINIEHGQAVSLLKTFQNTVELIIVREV; partner TKNYKQTSV
L49K: 0.743 kcal/mol
S62T: 0.0797 kcal/mol
K76N: 0.719 kcal/mol
V20G: 0.303 kcal/mol
A58W: 2.18 kcal/mol
G21F: 0.156 kcal/mol
T37G: 0.934 kcal/mol
V4R: 0.289 kcal/mol
H68F: 1.04 kcal/mol
I86E: 0.766 kcal/mol
V82A: 0.0777 kcal/mol
V82Q: 1.41 kcal/mol
H68W: 1.41 kcal/mol
V6T: 1.33 kcal/mol
Q70H: 0.022 kcal/mol
E1P: 0.0348 kcal/mol
K76L: 0.376 kcal/mol
I66S: 0.292 kcal/mol
F27S: 0.932 kcal/mol
G19V: 1.01 kcal/mol
A45K: 1.22 kcal/mol
E89W: 0.00801 kcal/mol
S46G: -0.111 kcal/mol
G19T: 1.3 kcal/mol

Study 3 — technique: protein binding microarray; molecule type: double-stranded DNA, one strand shown; matrix: in vitro; concentration: not given; reference: not given; direction: higher = stronger binding; measurement: E-score
Target: Histone acetyltransferase KAT6A, winged helix 2, GST fusion (KAT6A, Homo sapiens, UniProt Q92794, residues 85-181)
Setting: 8-mer, flanks averaged, mean of 2 arrays, mostly near background
Construct (chain): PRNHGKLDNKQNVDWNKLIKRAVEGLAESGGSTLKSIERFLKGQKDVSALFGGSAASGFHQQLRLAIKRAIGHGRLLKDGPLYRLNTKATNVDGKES
CACTTCAA: -0.0114
AGACTACT: -0.128
AGTTAGCC: -0.179
ACTCAGGC: 0.111
AGAAGCCT: 0.0144
CACTGTAC: -0.287
AGCGATCA: -0.125
CCTAATGA: -0.0866
CCGTCACG: -0.179
ACACGGAA: 0.0512
GGGTATAA: -0.00797
ATCTAGAG: -0.135
TACGGAGA: -0.0818
AAGATGAG: -0.093
CACATAGC: -0.0124
TTCAAGAA: 0.201
CCACAAGC: 0.124
CATCTCGG: 0.0658

Study 4 — target: CCNE2, cyclin fold, Cln2 fusion (human); technique: yeast growth competition, sequencing; matrix: yeast; setting: weak parent motif; reference: not given; direction: higher = stronger binding; measurement: normalised enrichment score
Starting sequence: PKMYT1 docking peptide (human); SFEPRNLLSLFED; partner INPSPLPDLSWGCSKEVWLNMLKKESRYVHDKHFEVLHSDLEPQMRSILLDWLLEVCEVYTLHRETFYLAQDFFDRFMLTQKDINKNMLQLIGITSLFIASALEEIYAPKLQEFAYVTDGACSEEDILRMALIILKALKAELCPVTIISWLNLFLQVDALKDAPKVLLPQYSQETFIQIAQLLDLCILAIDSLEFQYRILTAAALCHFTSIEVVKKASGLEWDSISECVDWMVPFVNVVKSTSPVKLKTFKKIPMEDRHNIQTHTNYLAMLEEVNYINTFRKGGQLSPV
MFEPRNLLSLFED [S1M]: 0.806
SFEPRELLSLFED [N6E]: -0.328
SFEPRFLLSLFED [N6F]: 0.454
SFTPRNLLSLFED [E3T]: -0.528
SFEERNLLSLFED [P4E]: -0.279
SFEKRNLLSLFED [P4K]: 0.54
SFEPRNLLGLFED [S9G]: -0.145
SFEPRNLLSLLED [F11L]: -0.0808
SFVPRNLLSLFED [E3V]: 0.916
SGEPRNLLSLFED [F2G]: -0.159
STEPRNLLSLFED [F2T]: 0.442
WFEPRNLLSLFED [S1W]: 0.574
SFAPRNLLSLFED [E3A]: 0.504
SFEPRNLLSWFED [L10W]: 0.604
SFEPRNLLSLNED [F11N]: -0.407
SFEPRNLLSLFEE [D13E]: -0.171
SFEPRDLLSLFED [N6D]: -1.05
SFEMRNLLSLFED [P4M]: 0.184
PFEPRNLLSLFED [S1P]: 0.176

Study 5 — technique: aptamer microarray, sandwich; molecule type: DNA with 2'F-ANA; matrix: in vitro; concentration: 200 nM; with: Cy3 exosite-II aptamer, 400 nM; direction: higher = stronger binding; measurement: mean fluorescence intensity; oligonucleotide: GGTTGGTGTGGTTGG
Target: Prothrombin, mature alpha-thrombin (F2, Homo sapiens, UniProt P00734)
Setting: whole 15-mer aptamer, many near background
2'F-ANA at 1 2 6 8 11 13 14: 57.3 a.u.
2'F-ANA at 8 9 11 13 15: 415 a.u.
2'F-ANA at 3 4 7 9 10 12 13 14: 227 a.u.
2'F-ANA at 1 2 4 5 6 7 8 9 10: 48.1 a.u.
2'F-ANA at 3 5 6 10 12 13 14 15: 48.5 a.u.
2'F-ANA at 3 4 5 6 7 8 12 13 15: 128 a.u.
2'F-ANA at 1 2 3 7 9 11 13 14 15: 69.6 a.u.
2'F-ANA at 1 2 5 6 10 13 14: 47 a.u.
2'F-ANA at 1 3 4 9 11 13 14: 60.2 a.u.
2'F-ANA at 1 2 4 6 9 10: 61.8 a.u.
2'F-ANA at 2 5 6 11 12 13 14: 97.9 a.u.
2'F-ANA at 2 7 8 9 10 12: 187 a.u.
2'F-ANA at 2 3 4 5 7 9 12 13 14 15: 51.6 a.u.
2'F-ANA at 3 4 6 7 10 13 14: 176 a.u.
2'F-ANA at 2 4 5 8 11 12 13 14 15: 48 a.u.
2'F-ANA at 3 4 5 6 7 9 10 13 15: 82.5 a.u.
2'F-ANA at 3 5 7 8 9 14 15: 58.5 a.u.
2'F-ANA at 4 6 8 11: 267 a.u.
2'F-ANA at 3 5 7 10 12 13: 75.2 a.u.
2'F-ANA at 2 4 6 7 8 11 13 14 15: 83.1 a.u.
2'F-ANA at 1 2 4 5 6 7 9 11 12 14: 59.2 a.u.
2'F-ANA at 1 3 5 7 9 11 12 13 14: 44.3 a.u.

Further values, each from its own experiment
PhoQ, residues 284 288 289 292 302 303 TTSMTC — fold induction (PhoP, residues 12 14 15 18 19 AQALL (Escherichia coli, UniProt P23836); Sort-seq, refers to: YFP reporter; E. coli; PhoQ-PhoP variant library, with: 10 µM Mg2+; reference: high Mg2+ state, higher = stronger signaling): 13.1

Some of these lines once more (study 5):
2'F-ANA at 3 5 7 8 9 14 15: 58.5 a.u.
2'F-ANA at 2 4 5 8 11 12 13 14 15: 48 a.u.
2'F-ANA at 8 9 11 13 15: 415 a.u.
2'F-ANA at 2 4 6 7 8 11 13 14 15: 83.1 a.u.
2'F-ANA at 1 2 4 5 6 7 9 11 12 14: 59.2 a.u.
